Values quoted from earlier work that unrelated publications cite.
Each line is one published result; not all experiments were run side by side.

SMILES = CCCCCCCC(=O)c1c(O)cc(O)cc1CC(=O)OCC; target or system = NR4A1; assay = cell-based; measurement = EC50; value = 0.000115 µM
SMILES = Cc1ccc2cccc(NC(=O)c3ccc(OC(C)C)cc3)c2n1; target or system = SERCA2a; measurement = Ca2+ affinity; value = decreased
SMILES = CCN(CC)CCCCNc1ncc2cc(-c3cc(OC)cc(OC)c3)c(NC(=O)NC(C)(C)C)nc2n1; target or system = c-Met; assay = inhibitor; measurement = IC50; value = > 1 µM
SMILES = CCCCCCCCCCCC1=C(O)C(=O)C=C(O)C1=O; target or system = XIAP BIR3 domain; measurement = Kd; value = ≤ 1 µM
SMILES = CCNS(=O)(=O)c1ccc(OC)cc1C1(O)CCN(Cc2cccc(Oc3ccccc3OC)c2)CC1; target or system = human CCR8 V109A mutant (TM3); assay = IP accumulation, agonist; measurement = EC50; value = 0.008 µM
SMILES = CC(C)(C)CCc1cc(C(F)(F)F)ccc1CNC(=O)Nc1cccc2[nH]ncc12; target or system = TRPV1; assay = calcium flux, antagonist; system = HEK293; setting = added: capsaicin; measurement = IC50; value = 0.0043 µM
SMILES = Cc1ccc(NC(=O)c2ccc(CN3CCNCC3)cc2)cc1Nc1nccc(-c2cccnc2)n1; target or system = human CYP2C8; assay = recombinant enzyme kinetics; how to read = baseline: CYP2C8 over CYP3A4; measurement = catalytic efficiency ratio; value = ~15 fold
SMILES = C[N+](C)(CC(=O)Nc1ccccc1)CC(=O)Nc1ccccc1; target or system = sodium channel; system = node; setting = concentration not given, external application; measurement = time to steady-state block; value = > 25 min
SMILES = COc1ccc(C[C@H](NC(=O)[C@H](C)NC(=O)CN2CCOCC2)C(=O)N[C@@H](Cc2ccccc2)C(=O)C2(C)CO2)cc1 (stereo in doubt); target or system = immunoproteasome subunit LMP2 (β1i); assay = enzyme activity, inhibitor; setting = 0.8 µM; measurement = inhibition; value = 60 to 80%
SMILES = FC(F)(F)c1ccc(Nc2ccnc3cc(-c4ncccc4C(F)(F)F)ccc23)nc1; target or system = TRPV1; assay = calcium flux, antagonist; system = HEK293; setting = added: capsaicin; measurement = IC50; value = 0.00165 µM
SMILES = COc1ccc(CNc2c(CO)cnc3c(C4CC4)cc(C#N)cc23)cc1Cl; target or system = PDE7; how to read = baseline: IC50 PDE7 over PDE5; measurement = selectivity ratio; value = > 10
SMILES = CN1C(C(=O)Nc2ccccn2)=C(O)c2sc(Cl)cc2S1(=O)=O; target or system = NR4A2 (Nurr1); assay = cellular; setting = concentration not given; measurement = activity; value = inactive
SMILES = COc1ccccc1Oc1cccc(CN2CCC(NC(=O)C3CC(=O)Nc4ccccc43)CC2)c1 (stereo not drawn); target or system = human CCR8 F88A mutant (TM2); assay = IP accumulation, agonist; measurement = EC50; value = 0.094 µM
SMILES = CC(C)(O/N=C(\C(=O)N[C@@H]1C(=O)N2C(C(=O)[O-])=C(C[n+]3ccccc3)CS[C@H]12)c1csc(N)n1)C(=O)O; target or system = Escherichia coli; system = clinical isolate RKI 131/08; measurement = MIC; value = ≤ 2 µg/mL
SMILES = Nc1cc(C(F)(F)F)c(-c2nc(N3CCOCC3)nc(N3CCOCC3)n2)cn1; target or system = FLT3 ITD; setting = 10 µM; how to read = baseline: control; measurement = remaining binding; value = 90%
SMILES = FC(F)(F)c1ccc(Nc2nc(N3CCN(C4CC4)CC3)nc3c2CCN(c2ncccc2C(F)(F)F)CC3)cc1; target or system = TRPV1; assay = calcium flux, antagonist; system = HEK293; setting = added: capsaicin; measurement = IC50; value = 0.011 µM
SMILES = COc1ccc2nc([S@+]([O-])Cc3ncc(C)c(OC)c3C)[nH]c2c1; target or system = CYP2C19; assay = mechanism-based inhibitor; measurement = KI; value = 1.6 µM
SMILES = FC(F)(F)c1ccc(Nc2nc(NCCN3CCOCC3)nc3sc(Nc4c(Cl)cccc4Cl)nc23)cc1; target or system = TRPV1; assay = calcium flux, antagonist; system = HEK293; setting = added: capsaicin; measurement = IC50; value = 0.039 µM
SMILES = Nc1ncnc2c1ncn2[C@@H]1O[C@H](COP(=O)(O)CP(=O)(O)OP(=O)(O)O)[C@@H](O)[C@H]1O; target or system = P2X purinoceptor; setting = reference compound; measurement = Hill coefficient; value = 1.1
SMILES = COc1ccccc1Oc1cccc(CN2CCC3(CC2)C(=O)NCN3CCc2ccccc2)c1; target or system = human CCR8 F88A mutant (TM2); assay = IP accumulation, agonist; measurement = EC50; value = 0.108 µM
SMILES = COc1cc(Cc2ccc(CCc3ccccc3)o2)ccc1O; target or system = SERCA2a; assay = activator; setting = concentration not given; how to read = baseline: control; measurement = maximal SERCA2a activity increase; value = 25 to 43%
SMILES = COc1ccccc1Oc1cccc(CN2CCC(O)(c3ccccc3C(=O)O)CC2)c1; target or system = human CCR8 V109A mutant (TM3); assay = IP accumulation, agonist; measurement = EC50; value = 0.034 µM
SMILES = N=C(N)c1ccc(Nc2ccc(-c3cc4ccc(C(=N)N)cc4[nH]3)cc2)cc1; target or system = PRMT3; assay = enzyme activity, inhibitor; setting = concentration not given; measurement = inhibition; value = inhibited
SMILES = O=C1NC(=O)c2c1c1c3ccccc3[nH]c1n1cncc21; target or system = CSNK1G2; assay = kinase activity, inhibitor; setting = 0.5 µM; measurement = inhibition; value = 37%
SMILES = CC(C)(O/N=C(\C(=O)N[C@@H]1C(=O)N2C(C(=O)[O-])=C(C[N+]3(CCNC(=O)c4ccc(O)c(O)c4Cl)CCCC3)CS[C@H]12)c1csc(N)n1)C(=O)O; target or system = KPC-33; assay = hydrolysis by enzyme, substrate; measurement = kcat; value = 0.006 s⁻¹
SMILES = Cc1onc(-c2ccccc2)c1-c1ccc(S(N)(=O)=O)cc1; target or system = NR4A3 (NOR-1); assay = cellular; setting = concentration not given; measurement = activity; value = inactive
SMILES = CC(C)(C)n1nc(Cc2cccc3ccccc23)c2c(N)ncnc21; target or system = CSNK1G2; assay = kinase activity, inhibitor; setting = 0.5 µM; measurement = inhibition; value = -1%
SMILES = O=C(Nc1ccc(C(F)(F)F)cc1)c1ncc(-c2ncccc2C(F)(F)F)cn1; target or system = TRPV1; assay = calcium flux, antagonist; system = HEK293; setting = added: capsaicin; measurement = IC50; value = 0.042 µM
SMILES = CCOC(=O)C1=CC(C)(C(=O)c2ccccc2)CCC1=O (stereo not drawn); target or system = RSK2 C-terminal kinase domain; measurement = dissociation half-life; value = 42 min
SMILES = Oc1c2ccccc2c2c3c(cccc13)N=N2; target or system = CSNK1G2; assay = kinase activity, inhibitor; setting = 0.5 µM; measurement = inhibition; value = 12%
SMILES = COc1ccccc1Oc1cccc(CN2CCC(NC(=O)C(CCN3CCCC3)c3ccccc3)CC2)c1 (stereo not drawn); target or system = human CCR8 S110A mutant (TM3); assay = IP accumulation, agonist; measurement = EC50; value = 0.0016 µM
SMILES = CCN1CCN(c2cc(N3CCN(CC)CC3)nc(NCCNc3ccnc4cc(Cl)ccc34)n2)CC1; target or system = NR4A2 (Nurr1); assay = agonist, cell-based; measurement = EC50; value = ~10 µM
SMILES = CC1(C)S[C@@H]2[C@H](NC(=O)[C@H](N)c3ccccc3)C(=O)N2[C@H]1C(=O)O; target or system = Enterobacter cloacae; system = clinical isolate RKI-No_460/16; measurement = MIC; value = > 16 µg/mL
SMILES = CC(C)n1cnc2c(Nc3cccc(Cl)c3)nc(NCCO)nc21; target or system = CSNK1G2; assay = kinase activity, inhibitor; setting = 0.5 µM; measurement = inhibition; value = 79%
SMILES = CCCCC/C=C\C/C=C\C/C=C\C/C=C\CCCC(=O)O; target or system = CYP4F3A (human); assay = substrate; system = insect cell microsomes; measurement = kcat; value = 0.192 s⁻¹
SMILES = Nc1nc(Nc2ccc(S(N)(=O)=O)cc2)n(C(=S)Nc2c(F)cccc2F)n1; target or system = CSNK1G2; assay = kinase activity, inhibitor; setting = 0.5 µM; measurement = inhibition; value = 85%
SMILES = CC(O)C(C)n1ncn(-c2ccc(N3CCN(c4ccc(OCC5COC(Cn6cncn6)(c6ccc(Cl)cc6Cl)O5)cc4)CC3)cc2)c1=O (stereo not drawn); target or system = human CYP3A4; assay = substrate, refers to: hydroxylation; measurement = Vmax; value = 0.095 pmol/min/pmol CYP
SMILES = Cl.Nc1nccc(-c2c(-c3ccc(F)cc3)ncn2C2CCNCC2)n1; target or system = CSNK1G3; assay = kinase activity, inhibitor; setting = 0.5 µM; measurement = inhibition; value = 16%
SMILES = O=C(NCc1ccc(Cl)c(C(F)(F)F)c1)Nc1cccc2cnccc12; target or system = TRPV1; assay = calcium flux, antagonist; system = HEK293; setting = added: capsaicin; measurement = IC50; value = 0.006 µM
SMILES = CCCCC/C=C\C[C@@H](O)/C=C/C=C/C=C\[C@@H](O)CCCC(=O)O; target or system = CYP4F3A (human); assay = substrate; system = insect cell microsomes; measurement = kcat; value = 0.547 s⁻¹
SMILES = CN(c1cccnc1-c1ccc(C(=O)Nc2ccc(C(C)(C)C)cc2)cc1)S(C)(=O)=O; target or system = TRPV1; assay = calcium flux, antagonist; system = HEK293; setting = added: capsaicin; measurement = IC50; value = 0.039 µM
SMILES = CN(CCN)Cc1csc(-c2ccc(C(=N)N)nc2)n1; target or system = PRMT1; assay = enzyme activity; setting = 10 µM; measurement = inhibition; value = 75%
SMILES = CO[C@H]1/C=C/O[C@@]2(C)Oc3c(C)c(O)c4c(O)c(c(/C=N/N5CCN(C)CC5)c(O)c4c3C2=O)NC(=O)/C(C)=C\C=C\[C@H](C)[C@H](O)[C@@H](C)[C@@H](O)[C@@H](C)[C@H](OC(C)=O)[C@@H]1C; target or system = OATP1B1; setting = optimised model value; measurement = kcat; value = 1.24 s⁻¹
SMILES = CCC(CC)N1CCN(c2nc3c(c(Nc4ccc(C(F)(F)F)cc4)n2)CCN(c2ncccc2C(F)(F)F)CC3)CC1; target or system = TRPV1; assay = calcium flux, antagonist; system = HEK293; setting = added: capsaicin; measurement = IC50; value = 0.041 µM
SMILES = c1cc(-c2cnn3cc(-c4ccc(OCCN5CCCCC5)cc4)cnc23)ccn1; target or system = CSNK1G2; assay = kinase activity, inhibitor; setting = 0.5 µM; measurement = inhibition; value = 26%
